Published values of several laboratories.
Numbers after ± are the reported error.

Structure (SMILES)	target or system	assay	test system	conditions	how to read	measurement	value
Nc1ccn(C[C@@H](CO)OCP(=O)(O)O)c(=O)n1	herpes simplex virus 2	cytopathic effect	HEL, clinical isolate NA			EC50	0.32 ± 0.26 µg/mL
N#Cc1ccc(-c2ccc(-c3cccs3)s2)cc1F	Salmonella enterica	sodium azide mutagenicity	TA1535	10 µM, 48 h, added: sodium azide 2 µg/plate after pre-exposure		inhibition	104 ± 14.7%
O=S(=O)(c1cccc2c(I)cccc12)N1CCCNCC1	HEK293 expressing MOR	morphine-induced cAMP overshoot, HTRF cAMP		1 µM, added: NKH 477 25 nM	reference: morphine control	efficacy	61%
CP(=O)(O)CCC(N)C(=O)O (stereo not drawn)	Eleusine indica			500 g/ha, 13 days, ELEIN, post-emergence spray	reference: untreated (0%), complete kill (100%)	herbicidal activity	100%
CCC1(c2ccccc2)C(=O)NC(=O)NC1=O		hind limb tonic extension	albino mouse, MES-induced seizure	ip, 4.0 h		minimal effective dose	100 mg/kg
CCc1ccc2c(O)c3c(cc2c1C(=O)OC)C(=O)c1c(O)ccc(O)c1C3=O	influenza virus	viral replication	MDCK	72 h		IC50	> 10 µM
O=S(=O)(CC1CS1)c1ccc(Oc2ccccc2)cc1 (stereo not drawn)	HBMEC monolayer BBB model	Aβ transcytosis		100 nM, 0 to 60 min, 37 °C, added: fluorescein-Aβ(1-42) 2 µM	reference: control	increase in Papp	> 50%
C[C@H](Cn1cnc2c(N)ncnc21)OCP(=O)(O)O	human alphaherpesvirus 2	virus production	human monocytes/macrophages	500 µg/mL, 6 days		inhibition	100%
N#Cc1ccc(-c2ccc(-c3cccs3)o2)cc1F	Salmonella enterica	sodium azide mutagenicity	TA1535	20 µM, 48 h, added: sodium azide 2 µg/plate after pre-exposure		inhibition	100%
O=C(O)c1nccnc1NC1CCC1	Mycobacterium tuberculosis variant bovis BCG	microbial growth	ATCC35734 BCG	5 days		IC50	400 µM
CN[C@@](C)(C[18F])C(=O)O			SCID mouse SK-OV-3 xenograft, muscle	30 min, post injection		tissue uptake	0.8 ± 0.2 %ID/g
CC(=O)Nc1c(N)nc(SCC(=O)N/N=C/c2ccc([N+](=O)[O-])cc2)[nH]c1=O	calf thymus DNA	terbium luminescence		24 h		concentration for maximal DNA damage	3 µM
ClCCN(CCCl)c1ccc(CCNc2ccnc3cc(Cl)ccc23)cc1	Dengue virus type 2	viral replication, Rluc reporter replicon	BHK-21 DENV2 replicon cells	24 h		EC50	3.6 ± 0.83 µM
CNC(C)Cc1ccc2c(c1)OCO2 (racemic)		visual analog scale, refers to: Sedated	human	oral, 0.75 mg/kg, mean over session, unit not given	reference: pre-dose baseline	mood rating	0.6
O=C(O)c1nccnc1-c1ccccc1	Mycobacterium tuberculosis variant bovis BCG	microbial growth	ATCC35734 BCG	5 days		IC50	1500 µM
CCCCCCCCCCCCCCCCCCOCC(COP(=O)([O-])OCC[N+](C)(C)C)OC (stereo not drawn)	HEK293 expressing MOR	cAMP overshoot, inhibitor, HTRF cAMP		added: morphine then naloxone		IC50	18.4 µM
N=C(N)c1ccc(-c2ccc(-c3cccs3)o2)cc1F	Salmonella enterica		TA1535	20 µM, 48 h, added: sodium azide co-exposure	reference: sodium azide alone	mutant frequency	15%
O=C(/C=C/c1ccc(O)cc1)c1ccc(O)cc1O	influenza virus	viral replication	MDCK	72 h		IC50	> 10 µM
Brc1c(Br)c(Br)c2n[nH]nc2c1Br	HEK293 expressing MOR	cAMP overshoot, inhibitor, HTRF cAMP		added: morphine then naloxone		IC50	14.6 µM
N=C(N)c1ccc(-c2ccc(-c3ccco3)o2)cc1F	Salmonella enterica	sodium azide mutagenicity	TA1535	10 µM, 48 h, added: sodium azide 2 µg/plate co-exposure		inhibition	103%
O=C(O)c1cccnc1	Mycobacterium tuberculosis variant bovis BCG	microbial growth	ATCC35734 BCG	5 days		IC50	700 to 900 µM
N=C(N)c1ccc(-c2ccc(-c3cccs3)o2)c(F)c1	Salmonella enterica	sodium azide mutagenicity	TA1535	10 µM, 48 h, added: sodium azide 2 µg/plate co-exposure		inhibition	103%
CCCCCc1cc(O)c2c(c1)OC(C)(C)[C@@H]1CCC(C)=C[C@@H]21		catalepsy (ring immobility)	ICR mice, female	intraperitoneal		ED50	2.41 mg/kg
N#Cc1ccc(-c2ccc(-c3cccs3)o2)c(F)c1	Salmonella enterica	sodium azide mutagenicity	TA1535	10 µM, 48 h, added: sodium azide 2 µg/plate co-exposure		inhibition	86%
Cc1ccc(-c2nccnc2C(=O)O)cc1	Mycobacterium tuberculosis variant bovis BCG	microbial growth	ATCC35734 BCG	5 days		IC50	~1000 µM
N#Cc1ccc(-c2ccc(-c3ccco3)o2)cc1F	Salmonella enterica	sodium azide mutagenicity	TA1535	20 µM, 48 h, added: sodium azide 2 µg/plate co-exposure		inhibition	97%
CC(C)c1ccc2c(c1)CC[C@H]1[C@](C)(CN)CCC[C@]21C	HFK normal keratinocytes	cell viability, MTS		48 h		IC50	8.95 ± 0.57 µM
